{"data": "Assay results of several laboratories", "Enpp1": "Ectonucleotide pyrophosphatase/phosphodiesterase family member 1 (Enpp1, Mus musculus, UniProt P06802)", "note": "Lines come from different studies, so protocols differ. ± marks the error that the study gave."}
{"Compound": "COc1cc2ncnc(N3CCC(CCNS(N)(=O)=O)CC3)c2cc1OC", "target or system": "Enpp1", "test": "enzyme activity, inhibitor, coupled luciferase AMP detection", "conditions": "pH 7.4, added: cGAMP 5 µM", "measurement": "Ki", "result": "1600 nM"}
{"Compound": "CC(C)(NC(=O)Nc1ccc(Cl)cc1)c1cccc(C(=N)NO)c1", "target or system": "IMPDH 2, Staphylococcus aureus", "test": "inhibitor", "conditions": "added: 500 µM NAD+, 1.0 mM IMP", "measurement": "Ki", "result": "12.7 ± 0.4 nM"}
{"Compound": "[2H]C1(C(=O)Nc2ccc3cc(C(=O)O)ccc3c2)CCN(S(=O)(=O)c2ccc(C)cc2C)CC1", "target or system": "EPHX2 (Homo sapiens, UniProt P34913)", "conditions": "pH 7.0, 30 °C, added: CMNPC substrate 5 µM", "measurement": "IC50", "result": "53 nM"}
{"Compound": "COc1cc2c(N(C)C)nc(NCCCN(C)C)nc2cc1OCCCCCN", "target or system": "Histone-lysine N-methyltransferase EHMT1, SET domain (EHMT1, Homo sapiens, UniProt Q9H9B1)", "test": "methyltransferase activity, inhibitor", "measurement": "Ki", "result": "75000 nM"}
{"Compound": "COc1ccc(-c2ccc(Cn3ccnc3)c3ccccc23)cc1", "target or system": "cyp121 (Mycobacterium tuberculosis, UniProt P9WPP7)", "test": "binding", "measurement": "Kd", "result": "1300 ± 110 nM"}
{"Compound": "CSC[C@H](NC(=O)Cc1ccc(N)cc1)C(=O)N[C@@H](Cc1ccccc1)[C@H](O)C(=O)N1CSC(C)(C)[C@H]1C(=O)N[C@H]1c2ccccc2C[C@H]1O", "target or system": "Plasmepsin IV (PMIV, Plasmodium falciparum 3D7, UniProt Q8IM16)", "test": "inhibitor, fluorogenic substrate", "conditions": "pH 5.0, mature enzyme", "measurement": "Ki", "result": "6 nM"}
{"Compound": "C[C@H](CS)C(=O)N[C@H](Cc1c[nH]c2ccccc12)C(=O)O", "target or system": "Enterobacter aerogenes", "test system": "VIM-1 producing", "conditions": "10 µM, added: meropenem", "measurement": "MIC of meropenem", "result": "8 µg/mL"}
{"Compound": "C1=C(CCNCc2ccccc2)CCCC1", "target or system": "Phenylalanine--tRNA ligase alpha subunit (pheS, Methanopyrus kandleri, UniProt Q8TYM5)", "test": "phenylalanine activation, inhibitor", "measurement": "IC50", "result": "> 300 µg/mL"}
{"Compound": "COc1ccc(CN[C@@H]2CO[C@H](C(c3ccccc3)c3ccccc3)C[C@H]2O)cc1", "target or system": "DRD5 (Homo sapiens, UniProt P21918)", "test": "radioligand binding", "conditions": "10 µM, added: [3H]SCH23390", "measurement": "inhibition", "result": "17.2%"}
{"Compound": "O=C(NC1CCN(c2ncnc3[nH]cnc23)CC1)c1cccc(NS(=O)(=O)c2ccc([N+](=O)[O-])cc2)c1", "target or system": "A549-ACE2", "conditions": "0.2743 µM", "measurement": "viability", "result": "105%"}
{"Compound": "[N-]=[N+]=CC(=O)[C@H](Cc1cccc([N+](=O)[O-])c1)NC(=O)OCc1ccccc1", "target or system": "Papain (Carica papaya, UniProt P00784)", "test": "enzyme activity, inhibitor", "measurement": "IC50", "result": "32800 ± 13000 nM"}
{"Compound": "CC(C)CC(NC(=O)C1OC1C(=O)O)C(=O)NCCCCN=C(N)N (stereo not drawn)", "target or system": "CTSC (Homo sapiens, UniProt P53634)", "test": "enzyme activity, inhibitor", "measurement": "IC50", "result": "960 nM"}
{"Compound": "CC(Oc1ccccc1)C(=O)Nc1ccc(Cl)cc1 (stereo not drawn)", "target or system": "Inosine-5'-monophosphate dehydrogenase (Borreliella burgdorferi, UniProt P49058)", "test": "enzyme activity, inhibitor", "conditions": "corrected for open enzyme conformation", "measurement": "IC50", "result": "840 nM"}
{"Compound": "CC(=NO)c1cccc(C(C)(C)NC(=O)Nc2ccc(Cl)c(-c3nc(C(F)(F)F)cs3)c2)c1", "target or system": "IMPDH 2, Staphylococcus aureus", "test": "inhibitor", "conditions": "added: 500 µM NAD+, 1.0 mM IMP", "measurement": "Ki", "result": "4.2 ± 1.7 nM"}
{"Compound": "CC(CCN[C@H](CN[C@H](CO)CN1CCC[C@H]1CN[C@H](CN)c1ccccc1)c1ccccc1)c1ccccc1 (stereo partly drawn)", "target or system": "Acinetobacter baumannii", "test": "bacterial growth", "conditions": "compound alone", "measurement": "IC90", "result": "> 24000 nM"}
{"Compound": "C#CCOCCC(=O)N[C@H](Cc1ccccc1)C(=O)N[C@@H](Cc1ccccc1)C(=O)N[C@@H](CCCNC(=N)N)C(=O)CCl", "target or system": "Replicase polyprotein 1ab, main protease (rep, Severe acute respiratory syndrome coronavirus 2, UniProt P0DTD1)", "test": "enzyme activity, inhibitor", "measurement": "Ki", "result": "300 ± 40 nM"}
{"Compound": "CSCC(CO)NCc1c[nH]c2c(N)ncnc12 (stereo not drawn)", "target or system": "MTA/SAH nucleosidase (Neisseria meningitidis, UniProt Q9K054)", "test": "MTA hydrolysis, inhibitor", "measurement": "Ki", "result": "0.8 ± 0.06 nM"}
{"Compound": "NC[C@@H](NC[C@@H]1CCCN1C[C@@H](CO)NC[C@@H](NCCc1ccc(-c2ccccc2)cc1)c1ccccc1)c1ccccc1", "target or system": "Acinetobacter baumannii", "test": "bacterial growth", "conditions": "8 µM, fold shift of IC90, added: amikacin", "measurement": "potentiation of amikacin", "result": "1.9 fold"}
{"Compound": "NCCNCCSc1ccccc1", "test system": "Swiss Albino mouse, female", "conditions": "oral, 600 mg/kg, single dose, non-compartmental", "measurement": "lag time (Tlag)", "result": "0 min"}
{"Compound": "CCOc1cccc2c(N3CCC(CCP(=O)(O)O)CC3)ncnc12", "target or system": "Enpp1", "test": "enzyme activity, inhibitor, coupled luciferase AMP detection", "conditions": "pH 7.4, added: cGAMP 5 µM", "measurement": "Ki", "result": "< 2 nM"}
{"Compound": "NC(=O)c1cn(C[C@H](NC(=O)Cc2cccs2)B(O)O)nn1", "target or system": "ADC-7 beta-lactamase (Acinetobacter baumannii, UniProt Q6DRA1)", "test": "enzyme activity, inhibitor", "conditions": "5 min preincubation, pH 7.4, room temperature, added: nitrocefin", "measurement": "Ki", "result": "224 ± 2 nM"}
